# Assay results pooled from the literature.
# Lines come from different studies, so protocols differ. Several values in a cell are separate wells, animals, samples, runs or records. ± gives the spread as reported.
# UniProt P33261, sequence (whole entry, looked up): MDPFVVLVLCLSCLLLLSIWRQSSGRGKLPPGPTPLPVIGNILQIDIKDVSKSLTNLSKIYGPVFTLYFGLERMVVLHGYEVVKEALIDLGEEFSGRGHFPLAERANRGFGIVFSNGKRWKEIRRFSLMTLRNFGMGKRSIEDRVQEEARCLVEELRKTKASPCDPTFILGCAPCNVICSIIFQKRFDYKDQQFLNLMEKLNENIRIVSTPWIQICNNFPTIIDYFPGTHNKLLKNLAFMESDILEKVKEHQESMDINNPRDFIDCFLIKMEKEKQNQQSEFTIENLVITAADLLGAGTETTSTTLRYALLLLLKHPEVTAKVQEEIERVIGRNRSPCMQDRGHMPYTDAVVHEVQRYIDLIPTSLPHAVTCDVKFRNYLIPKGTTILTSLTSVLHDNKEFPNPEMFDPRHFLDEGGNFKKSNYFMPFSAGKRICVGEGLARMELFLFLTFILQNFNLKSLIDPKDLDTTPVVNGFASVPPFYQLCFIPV
# UniProt P08684, sequence (whole entry, looked up): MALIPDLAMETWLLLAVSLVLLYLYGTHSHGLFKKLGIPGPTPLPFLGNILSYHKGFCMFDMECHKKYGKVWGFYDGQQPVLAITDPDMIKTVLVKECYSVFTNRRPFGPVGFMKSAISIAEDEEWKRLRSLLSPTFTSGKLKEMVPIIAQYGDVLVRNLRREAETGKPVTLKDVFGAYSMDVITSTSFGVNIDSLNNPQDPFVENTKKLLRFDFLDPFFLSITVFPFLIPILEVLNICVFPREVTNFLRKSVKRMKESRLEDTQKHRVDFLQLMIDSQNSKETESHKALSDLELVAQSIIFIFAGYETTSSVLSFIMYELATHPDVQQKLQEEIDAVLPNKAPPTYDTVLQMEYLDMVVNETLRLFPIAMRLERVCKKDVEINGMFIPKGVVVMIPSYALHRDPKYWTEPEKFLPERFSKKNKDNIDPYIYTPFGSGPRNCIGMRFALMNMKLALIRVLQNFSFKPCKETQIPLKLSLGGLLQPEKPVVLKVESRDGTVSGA
Compound,target or system,assay,test system,setting,scale,measurement,result
COc1cc(N)c(Cl)cc1C(=O)NC1CCN(CCCOc2ccc(F)cc2)CC1OC (stereo not drawn),,,"male Hartley guinea pig, anaesthetized","intravenous infusion, 1 mg/kg, 10 min infusion, post-infusion",,QTc interval,361 ± 0.7 ms
CC(C)C[C@H](N)C(=O)O,Bacillus subtilis,,"NCIB3610, MOPS medium","1 mM, 1 mM equimolar amino acid mixture",,uptake half-time,> 25 h
CC(=O)Oc1ccccc1C(=O)O,,,"male Hartley guinea pig, anaesthetized","intravenous infusion, 10 mg/kg, 10 min infusion, post-infusion",,QTc interval,319 ± 0.6 ms
N[C@@H](CC(=O)O)C(=O)O,Bacillus subtilis,,"168, S7 medium","1 mM, equimolar amino acid mixture",,uptake half-time,10.6 h
CCCC(CCC)C(=O)Oc1cccc(C(O)CCN)c1.O=CO (stereo not drawn),porcine liver esterase,,,"99 µM, 5 min",reference: time 0 min,compound remaining,99.8%
COc1ccc2nc([S+]([O-])Cc3ncc(CO)c(OC)c3C)[nH]c2c1 (stereo not drawn),"CYP2C19 (Homo sapiens, UniProt P33261)",CYP2C19 probe metabolite,"human, plasma","oral, 20 mg omeprazole, probe cocktail",,Tmax,≤ 3 h
N[C@@H](CS)C(=O)O,Bacillus subtilis,,"168, S7 medium","1 mM, equimolar amino acid mixture",,uptake half-time,13.6 h
CC[C@H]1[C@@H](O)[C@@H]2[C@H](CC[C@]3(C)[C@@H]([C@H](C)CCNC(=O)NS(=O)(=O)c4ccc(C(C)(C)C)cc4)CC[C@@H]23)[C@@]2(C)CC[C@@H](O)C[C@@H]12,"Cytochrome P450 3A4 (CYP3A4, Homo sapiens, UniProt P08684)",,"human, plasma","dose not given, compound alone",,half-life geometric mean,10.8 h
Cc1ccc(S(=O)(=O)Nc2ncc(-c3nc4ccccc4s3)c(N)n2)cc1,BGM,cytotoxicity,,72 h,,maximum non-toxic concentration,110 µg/mL
C[C@]12CC[C@@H]3c4ccc(O)cc4C[C@@H](CCCCCCCCC[S+]([O-])CCCC(F)(F)C(F)(F)F)[C@H]3[C@@H]1CC[C@@H]2O (stereo partly drawn),LCC2 tamoxifen-resistant,CCK-8,,400 nM,reference: untreated,viability,88.7% and 84.3% and 93.3%
Cc1cc(Nc2ccc(S(F)(F)(F)(F)F)cc2)n2nc(C(C)(F)F)nc2n1,Plasmodium vivax,12-lead Holter ECG,human malaria patients,"oral, 400 mg, QTc above 500 ms",,patients with QTcB above threshold,0%
Cc1cc(N)c2c(OCC(C)(C)C(=O)NC(C)C)cccc2n1,Salmonella typhimurium,"reverse mutation, plate incorporation",TA100,"500 µg/plate, with rat liver S9",,mean revertant colonies,95 colonies/plate
C[C@H](N)C(=O)O,Bacillus subtilis,,"168, S7 medium","1 mM, equimolar amino acid mixture",,uptake half-time,11.7 h
CC(C)NCC(O)c1ccc(NS(C)(=O)=O)cc1 (racemic),,,"male Hartley guinea pig, anaesthetized","intravenous, 10 mg/kg, baseline before infusion",,QTc interval,324 ± 0.7 ms
N#C[C@@]1(c2ccc3c(N)ncnn23)O[C@H](COC(=O)c2ccccc2)[C@@H](O)[C@H]1O,human respiratory syncytial virus,"viral replication, viral protein ELISA","HEp-2, A2",5 days,reference: CC50 over EC50,selectivity index,165

# Some of these lines once more:
Compound,target or system,assay,test system,setting,scale,measurement,result
CCCC(CCC)C(=O)Oc1cccc(C(O)CCN)c1.O=CO (stereo not drawn),porcine liver esterase,,,"99 µM, 5 min",reference: time 0 min,compound remaining,99.8%
COc1cc(N)c(Cl)cc1C(=O)NC1CCN(CCCOc2ccc(F)cc2)CC1OC (stereo not drawn),,,"male Hartley guinea pig, anaesthetized","intravenous infusion, 1 mg/kg, 10 min infusion, post-infusion",,QTc interval,361 ± 0.7 ms
